Experimental data of several laboratories.
A part holds a random share of what one study measured. pIC50: −log10 of the molar value.

Set 1
Target: Replicase polyprotein 1ab, main protease (rep, Severe acute respiratory syndrome coronavirus 2, UniProt P0DTD1)
Read-out: enzyme activity
Action: inhibitor
Setting: without DTT
| SMILES | pIC50 |
| --- | --- |
| COc1ccnc(C[S+]([O-])c2nc3ccc(OC(F)F)cc3[nH]2)c1OC (centres unmarked) | < 4.70 |
| CN(C)CCNc1nc2cc(O)ccc2c2c1C(=O)c1ccccc1-2 | 5.52 |
| Cc1c(OCC(F)(F)F)ccnc1C[S+]([O-])c1nc2ccccc2[nH]1 (centres unmarked) | 5.14 |

Set 2
Target: Replicase polyprotein 1ab, polymerase (rep, Severe acute respiratory syndrome coronavirus 2, UniProt P0DTD1)
Read-out: enzyme activity
Action: inhibitor
Concentration: 20 µM
| Compound | inhibition [%] |
| --- | --- |
| CC(=O)OCC(=O)[C@@]1(O)CC[C@H]2[C@@H]3CCC4=CC(=O)CC[C@]4(C)[C@H]3[C@@H](O)C[C@@]21C | 9.48 |
| O=C1OC(c2ccc(O)cc2)(c2ccc(O)cc2)c2ccccc21 | 21.1 |
| C[C@@H](N)[C@H]1CC[C@H](C(=O)Nc2ccncc2)CC1 | -7.68 |
| C=C(C)[C@@H]1CC=C(CO)CC1 | 2.5 |
| CCCC[C@H](NC(C)=O)C(=O)N[C@H]1CC(=O)NCCCC[C@@H](C(=O)O)NC(=O)[C@H](Cc2c[nH]c3ccccc23)NC(=O)[C@H](CCCNC(=N)N)NC(=O)[C@@H](Cc2ccccc2)NC(=O)[C@H](Cc2c[nH]cn2)NC1=O | 3.06 |
| NC[C@@H]1O[C@H](O[C@H]2[C@@H](O)[C@H](O[C@@H]3[C@@H](O)[C@H](N)C[C@H](N)[C@H]3O[C@H]3O[C@H](CO)[C@@H](O)[C@H](O)[C@H]3N)O[C@@H]2CO)[C@H](N)[C@@H](O)[C@@H]1O | -4.05 |
| COCC(=O)O[C@]1(CCN(C)CCCc2nc3ccccc3[nH]2)CCc2cc(F)ccc2[C@@H]1C(C)C | 1.03 |
| O=C(N[C@@H](Cc1c[nH]c2ccccc12)C(=O)O)c1ccc(Cl)cc1 | 0.09 |
| CCCCCCCCN=c1ccn(CCCCCCCCCCn2ccc(=NCCCCCCCC)cc2)cc1 | 78 |
| CC(C)Cn1cnc2c(N)nc3ccccc3c21 | -7.25 |
| O=c1[nH]c2cc(Cl)ccc2c(O)c1-c1cccc(Oc2ccccc2)c1 | 3.35 |
| CC(C)C[C@H](NC(=O)[C@@H](Cc1c[nH]c2ccccc12)NC(=O)[C@H](Cc1ccc(O)cc1)NC(=O)[C@H](CO)NC(=O)[C@H](Cc1c[nH]c2ccccc12)NC(=O)[C@H](Cc1cnc[nH]1)NC(=O)[C@@H]1CCC(=O)N1)C(=O)N[C@@H](CCCN=C(N)N)C(=O)N1CCC[C@H]1C(=O)NCC(N)=O | 3.9 |
| CC(C)[C@H]1c2ccc(F)cc2CC[C@@]1(CCN(C)CCCc1nc2ccccc2[nH]1)OC(=O)C1CC1 | 0.28 |
| NCc1ccccc1CC(=O)N[C@@H]1C(=O)N2C(C(=O)O)=C(CSc3nnnn3CC(=O)O)CS[C@H]12 | 5.92 |
| C1CCc2nnnn2CC1 | 1.37 |
| CCOC(=O)[C@H](CCc1ccccc1)N[C@@H](C)C(=O)N1[C@H](C(=O)O)C[C@H]2CCCC[C@@H]21 | -3.5 |
| CNC(=O)c1cc(Oc2ccc(NC(=O)Nc3cc(C(C)(C)C)nn3-c3ccc4ncccc4c3)c(F)c2)ccn1 | -0.42 |
| Cc1cccc(NC(=O)N[C@@H]2N=C(c3ccccc3)c3ccccc3N(CC(=O)c3ccccc3C)C2=O)c1 | -1.93 |
| Cc1nc(C#Cc2ccnc(Cl)c2)c(C)n1-c1ccc(F)cc1 | 0.72 |
| CCN1CCN(c2ccc(C(C)(C)NC(=O)c3cc4[nH]c5ccccc5c(=O)c4cc3F)cn2)CC1 | 5.93 |
| COC(=O)c1ccc2c(c1)nc(NC(=O)c1ccccc1)n2CCCc1ccccc1 | -4.38 |
| OC(CN1CCC(Cc2ccc(F)cc2)CC1)c1ccc(Cl)cc1 (centres unmarked) | -4.26 |

Set 3
Target: Phosphate system positive regulatory protein PHO4, full length, GST-tagged (PHO4, Saccharomyces cerevisiae, UniProt P07270, residues 1-312)
Technique: competition protein-binding microarray
Molecule type: double-stranded DNA, one strand shown
Matrix: in vitro
Concentration: 2 µM
Setting: whole 60-bp probe, lowest competitor level
Together with: Cbf1 competitor, 0.05 µM
Reading: higher = stronger binding
All sequences stand within: … GTCTTGATTCGCTTGACGCTGCTG
Target sequence (chain): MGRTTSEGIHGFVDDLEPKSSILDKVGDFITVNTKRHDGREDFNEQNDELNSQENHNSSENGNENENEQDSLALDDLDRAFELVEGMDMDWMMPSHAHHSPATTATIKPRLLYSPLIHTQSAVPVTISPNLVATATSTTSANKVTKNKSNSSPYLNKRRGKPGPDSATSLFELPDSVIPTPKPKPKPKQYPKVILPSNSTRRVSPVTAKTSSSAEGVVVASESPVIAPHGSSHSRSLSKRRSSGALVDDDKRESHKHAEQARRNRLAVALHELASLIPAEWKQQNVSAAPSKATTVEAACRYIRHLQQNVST
| Oligonucleotide | fluorescence intensity [a.u.] |
| --- | --- |
| TTTATGTGGCCTTAAATTTTCGACCTATGGTTCACT | 2820 |
| CGGGGTTAAGTTTTTCACGTGAATTGCTTGCAGCAG | 8190 |
| GCCCGCCGGCGACGTCACGCGGCCGTTACGGCGCTC | 5380 |
| TTACAAATGGTTCAGATCATGCAGATGCAGCACTTG | 5170 |
| TCACGGAAATCTTATCATGTGTCGCCCCATCCAATT | 6490 |
| CATACCCAACCTTGATGGGTGGGTGAAGATATTTGT | 4090 |
| CTAACGAAGGTTTGTGGAGTGGGTGACAAGCCAAGT | 3840 |
| GTTACGTTCTGTGGTGGCGTGCCGACTTCCAAGTCC | 6950 |

Set 4
Target: Runt-related transcription factor 3, Runt domain (RUNX3, Homo sapiens, UniProt Q13761, residues 53-186)
Chain of UniProt Q13761 (53-186, looked up): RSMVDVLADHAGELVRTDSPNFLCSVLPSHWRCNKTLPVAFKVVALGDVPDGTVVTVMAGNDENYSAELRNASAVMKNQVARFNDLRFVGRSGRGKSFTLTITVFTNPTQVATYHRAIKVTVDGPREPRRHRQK
Technique: protein-binding microarray
Molecule type: hairpin DNA
Matrix: in vitro
Concentration: not given
Setting: whole hairpin DNA, median over replicate spots
Baseline: not given
Reading: higher = stronger binding
| Oligonucleotide | median fluorescence [a.u.] |
| --- | --- |
| GAGGCCTGTCGCTGTTGGCCTCCTGGCCAACAGCGACAGGCCTCACACTC | 5080 |
| GAGGCCTGTTGCGATTGGCCTCCTGGCCAATCGCAACAGGCCTCACACTC | 4710 |
| GAGGCCCAACCGCACGAGCCTCCTGGCTCGTGCGGTTGGGCCTCACACTC (5mC at 15 29) | 5850 |
| GAGGCCTGTCGTGGTTGGCCTCCTGGCCAACCACGACAGGCCTCACACTC | 5370 |

Set 5
SMILES: CC(C)n1cnc(-c2ccc(F)cc2)c1-c1ncc(C(=O)Nc2ccc(N3CCN(C)CC3)cc2)[nH]1
Technique: phase 2a clinical trial
Refers to: injury and poisoning (SOC)
Host: idiopathic pulmonary fibrosis patients
| dose | setting | baseline | patients with TEAEs |
| --- | --- | --- | --- |
| dose not given | grade 1, all drug arms | – | 0% |
| 60 mg once daily | grade 1 maximum intensity | – | 0% |
| 60 mg once daily | grade 3 maximum intensity | patients | 1% |
| dose not given | grade 3, all drug arms | patients | 1% |
| 30 mg once daily | grade 5 maximum intensity | – | 0% |
| 30 mg once daily | grade 2 maximum intensity | – | 0% |

Further values, each from its own experiment
| Structure (SMILES) | cell line | concentration | time | baseline | quantity | value |
| --- | --- | --- | --- | --- | --- | --- |
| CC(C)N1CCN(c2ccc(OCC3COC(Cn4cncn4)(c4ccc(Cl)cc4Cl)O3)cc2)CC1 (centres unmarked) | HEK-293T/ACE2 | 10 µM | 16 h | vehicle | viability | 97.8% |

Excerpt of the above (set 2):
| Compound | inhibition [%] |
| --- | --- |
| CC(C)[C@H]1c2ccc(F)cc2CC[C@@]1(CCN(C)CCCc1nc2ccccc2[nH]1)OC(=O)C1CC1 | 0.28 |
| NCc1ccccc1CC(=O)N[C@@H]1C(=O)N2C(C(=O)O)=C(CSc3nnnn3CC(=O)O)CS[C@H]12 | 5.92 |
| C1CCc2nnnn2CC1 | 1.37 |
| CCOC(=O)[C@H](CCc1ccccc1)N[C@@H](C)C(=O)N1[C@H](C(=O)O)C[C@H]2CCCC[C@@H]21 | -3.5 |
| CNC(=O)c1cc(Oc2ccc(NC(=O)Nc3cc(C(C)(C)C)nn3-c3ccc4ncccc4c3)c(F)c2)ccn1 | -0.42 |
| Cc1cccc(NC(=O)N[C@@H]2N=C(c3ccccc3)c3ccccc3N(CC(=O)c3ccccc3C)C2=O)c1 | -1.93 |
| Cc1nc(C#Cc2ccnc(Cl)c2)c(C)n1-c1ccc(F)cc1 | 0.72 |
